Experimental data collected from several papers.
A part holds a random share of what one study measured. Several values in a cell are separate wells, animals, samples, runs or records.
UniProt Q16644, sequence (whole entry, looked up): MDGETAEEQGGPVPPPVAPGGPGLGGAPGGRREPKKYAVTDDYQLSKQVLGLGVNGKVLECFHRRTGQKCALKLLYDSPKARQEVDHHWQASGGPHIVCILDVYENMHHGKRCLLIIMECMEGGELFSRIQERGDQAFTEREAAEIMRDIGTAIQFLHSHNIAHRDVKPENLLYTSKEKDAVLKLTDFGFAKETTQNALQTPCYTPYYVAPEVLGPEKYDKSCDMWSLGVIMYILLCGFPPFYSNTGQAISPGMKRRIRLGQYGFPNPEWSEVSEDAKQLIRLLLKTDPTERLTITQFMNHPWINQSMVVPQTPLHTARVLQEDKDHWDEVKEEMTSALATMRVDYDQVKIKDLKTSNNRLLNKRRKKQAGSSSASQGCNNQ
UniProt Q9UK32, sequence (whole entry, looked up): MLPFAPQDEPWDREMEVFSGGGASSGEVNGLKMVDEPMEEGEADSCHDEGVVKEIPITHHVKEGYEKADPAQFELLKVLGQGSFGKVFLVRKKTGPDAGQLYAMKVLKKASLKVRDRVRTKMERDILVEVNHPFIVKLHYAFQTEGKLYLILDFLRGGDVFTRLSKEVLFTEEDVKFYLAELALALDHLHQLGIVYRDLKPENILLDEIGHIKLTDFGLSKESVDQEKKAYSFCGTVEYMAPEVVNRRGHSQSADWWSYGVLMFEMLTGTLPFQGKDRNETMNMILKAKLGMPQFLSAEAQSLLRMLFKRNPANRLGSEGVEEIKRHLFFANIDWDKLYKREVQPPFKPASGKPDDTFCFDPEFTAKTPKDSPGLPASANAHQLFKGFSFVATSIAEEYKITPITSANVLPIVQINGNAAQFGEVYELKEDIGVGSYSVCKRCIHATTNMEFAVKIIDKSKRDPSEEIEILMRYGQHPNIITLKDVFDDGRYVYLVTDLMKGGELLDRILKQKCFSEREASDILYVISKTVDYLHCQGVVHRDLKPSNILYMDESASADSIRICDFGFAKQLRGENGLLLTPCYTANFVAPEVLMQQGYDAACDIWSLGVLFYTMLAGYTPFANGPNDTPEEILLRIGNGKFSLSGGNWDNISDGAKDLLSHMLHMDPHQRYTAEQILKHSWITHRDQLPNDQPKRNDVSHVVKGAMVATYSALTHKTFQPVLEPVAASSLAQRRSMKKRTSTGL
UniProt P54764, sequence (whole entry, looked up): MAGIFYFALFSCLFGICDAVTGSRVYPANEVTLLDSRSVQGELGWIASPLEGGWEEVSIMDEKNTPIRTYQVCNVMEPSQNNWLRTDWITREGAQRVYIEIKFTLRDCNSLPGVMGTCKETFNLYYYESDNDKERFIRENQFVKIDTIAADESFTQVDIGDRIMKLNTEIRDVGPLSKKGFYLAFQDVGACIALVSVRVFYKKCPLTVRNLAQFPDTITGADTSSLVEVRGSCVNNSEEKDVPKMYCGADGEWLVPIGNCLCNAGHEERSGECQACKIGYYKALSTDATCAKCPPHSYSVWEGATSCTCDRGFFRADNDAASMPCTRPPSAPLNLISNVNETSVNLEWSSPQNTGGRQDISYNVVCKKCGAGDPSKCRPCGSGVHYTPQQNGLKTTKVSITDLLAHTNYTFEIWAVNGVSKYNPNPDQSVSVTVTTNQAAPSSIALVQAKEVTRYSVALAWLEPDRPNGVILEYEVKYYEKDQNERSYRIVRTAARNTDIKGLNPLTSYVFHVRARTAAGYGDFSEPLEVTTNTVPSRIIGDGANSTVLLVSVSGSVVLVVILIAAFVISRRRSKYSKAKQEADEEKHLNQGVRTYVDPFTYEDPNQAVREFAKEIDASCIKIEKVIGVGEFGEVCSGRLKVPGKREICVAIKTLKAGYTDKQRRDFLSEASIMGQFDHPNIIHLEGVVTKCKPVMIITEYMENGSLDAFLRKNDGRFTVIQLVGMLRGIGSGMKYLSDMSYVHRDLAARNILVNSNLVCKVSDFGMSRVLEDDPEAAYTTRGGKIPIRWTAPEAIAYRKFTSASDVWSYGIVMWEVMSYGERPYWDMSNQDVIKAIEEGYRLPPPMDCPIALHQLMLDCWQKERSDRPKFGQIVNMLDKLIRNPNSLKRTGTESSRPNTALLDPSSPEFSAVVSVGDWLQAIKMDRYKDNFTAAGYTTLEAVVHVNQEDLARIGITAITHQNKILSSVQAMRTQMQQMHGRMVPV
UniProt Q9BYP7, sequence (whole entry, looked up): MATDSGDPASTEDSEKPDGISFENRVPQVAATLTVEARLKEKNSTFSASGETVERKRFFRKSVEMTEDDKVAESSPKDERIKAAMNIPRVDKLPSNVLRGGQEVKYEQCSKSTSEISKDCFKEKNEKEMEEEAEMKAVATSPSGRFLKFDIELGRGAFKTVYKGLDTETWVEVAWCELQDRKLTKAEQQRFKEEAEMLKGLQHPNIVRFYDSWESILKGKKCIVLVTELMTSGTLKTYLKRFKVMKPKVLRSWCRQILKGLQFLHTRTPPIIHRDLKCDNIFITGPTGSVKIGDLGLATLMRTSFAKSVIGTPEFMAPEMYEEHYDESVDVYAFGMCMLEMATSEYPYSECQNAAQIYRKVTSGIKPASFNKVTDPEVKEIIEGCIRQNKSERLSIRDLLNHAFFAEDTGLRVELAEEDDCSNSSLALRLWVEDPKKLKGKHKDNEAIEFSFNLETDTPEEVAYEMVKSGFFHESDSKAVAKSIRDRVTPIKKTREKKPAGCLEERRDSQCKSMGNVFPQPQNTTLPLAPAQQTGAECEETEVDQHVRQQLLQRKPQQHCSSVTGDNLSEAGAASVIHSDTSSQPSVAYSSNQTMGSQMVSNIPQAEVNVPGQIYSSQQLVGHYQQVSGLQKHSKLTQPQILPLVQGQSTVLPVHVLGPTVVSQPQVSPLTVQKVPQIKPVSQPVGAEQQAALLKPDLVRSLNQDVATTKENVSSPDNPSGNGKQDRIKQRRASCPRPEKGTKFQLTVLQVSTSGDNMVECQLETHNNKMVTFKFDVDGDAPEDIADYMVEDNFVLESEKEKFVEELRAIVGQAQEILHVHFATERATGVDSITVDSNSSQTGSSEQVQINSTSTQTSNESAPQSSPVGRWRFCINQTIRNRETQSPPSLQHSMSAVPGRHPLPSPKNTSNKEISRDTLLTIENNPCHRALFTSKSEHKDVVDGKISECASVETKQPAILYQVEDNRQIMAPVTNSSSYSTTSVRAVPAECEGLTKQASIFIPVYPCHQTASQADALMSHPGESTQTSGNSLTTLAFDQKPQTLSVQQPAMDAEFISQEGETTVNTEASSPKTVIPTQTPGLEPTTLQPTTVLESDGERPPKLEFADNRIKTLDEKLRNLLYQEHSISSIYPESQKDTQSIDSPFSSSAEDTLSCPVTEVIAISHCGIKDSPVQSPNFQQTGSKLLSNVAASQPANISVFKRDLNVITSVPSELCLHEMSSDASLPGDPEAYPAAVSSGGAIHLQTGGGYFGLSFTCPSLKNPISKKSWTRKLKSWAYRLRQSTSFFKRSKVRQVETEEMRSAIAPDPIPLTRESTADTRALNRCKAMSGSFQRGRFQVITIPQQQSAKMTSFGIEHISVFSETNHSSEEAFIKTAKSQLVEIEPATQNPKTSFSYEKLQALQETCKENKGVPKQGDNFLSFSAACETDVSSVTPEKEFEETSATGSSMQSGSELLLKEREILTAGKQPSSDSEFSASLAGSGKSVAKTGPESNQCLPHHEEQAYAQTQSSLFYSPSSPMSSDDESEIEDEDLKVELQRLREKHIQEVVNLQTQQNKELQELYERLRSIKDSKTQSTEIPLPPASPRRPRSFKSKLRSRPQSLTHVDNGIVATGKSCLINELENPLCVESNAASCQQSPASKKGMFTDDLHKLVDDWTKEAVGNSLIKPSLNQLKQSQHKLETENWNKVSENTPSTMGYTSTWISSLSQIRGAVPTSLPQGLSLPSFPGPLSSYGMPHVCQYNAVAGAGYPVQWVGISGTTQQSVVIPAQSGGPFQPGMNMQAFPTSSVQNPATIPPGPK
UniProt Q96PF2, sequence (whole entry, looked up): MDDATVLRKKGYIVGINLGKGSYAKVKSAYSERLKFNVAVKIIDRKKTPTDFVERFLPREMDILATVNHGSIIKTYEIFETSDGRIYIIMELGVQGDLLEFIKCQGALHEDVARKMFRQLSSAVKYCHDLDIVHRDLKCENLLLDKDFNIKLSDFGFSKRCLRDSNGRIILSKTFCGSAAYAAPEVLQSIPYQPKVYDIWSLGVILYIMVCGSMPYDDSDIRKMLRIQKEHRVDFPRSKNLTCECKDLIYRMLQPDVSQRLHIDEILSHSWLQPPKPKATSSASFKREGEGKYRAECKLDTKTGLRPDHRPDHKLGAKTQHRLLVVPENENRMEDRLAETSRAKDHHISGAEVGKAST
UniProt P06493, sequence (whole entry, looked up): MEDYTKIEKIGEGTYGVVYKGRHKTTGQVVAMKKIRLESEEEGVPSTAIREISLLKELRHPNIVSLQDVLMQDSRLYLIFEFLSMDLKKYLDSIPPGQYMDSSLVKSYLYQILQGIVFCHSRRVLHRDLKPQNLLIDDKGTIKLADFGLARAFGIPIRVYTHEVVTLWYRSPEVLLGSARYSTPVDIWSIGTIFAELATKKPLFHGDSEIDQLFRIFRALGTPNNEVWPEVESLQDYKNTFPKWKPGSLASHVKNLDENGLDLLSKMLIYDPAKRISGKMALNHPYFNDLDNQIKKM

Set 1 — cell line: mouse MPNST tumor cells; method: high-content immunofluorescence imaging; measured: nuclear SOX9; tested at: 10 µM; time: 12 h; notes: mean of 2 replicates; baseline: DMSO control; direction: higher = more nuclear SOX9; endpoint: nuclear SOX9 intensity
CN(C)/N=N/c1[nH]cnc1C(N)=O: 97 % of DMSO
O=C(Nc1cccc2c(=O)cc(-c3nnn[nH]3)oc12)c1ccc(OCCCCc2ccccc2)cc1: 97.6 % of DMSO
CCN1C(=CC(C)=O)Sc2ccc(O)cc21: 71.6 % of DMSO
O=c1ncn2nc(Sc3ccc(F)cc3F)ccc2c1-c1c(Cl)cccc1Cl: 96 % of DMSO
O=C(NCCCCCCNC(=O)ON=C1CCCCC1)ON=C1CCCCC1: 93.2 % of DMSO
O=S(=O)(NCCCCCCc1ccccc1)c1cccc2c(Cl)cccc12: 102 % of DMSO
COC(=O)Nc1nc2cc(C(=O)c3cccs3)ccc2[nH]1: 192 % of DMSO and 203 % of DMSO
CC(=Cc1ccc(Cl)cc1)C(C)=NO: 99.9 % of DMSO
Fc1ccccc1Nc1nc2nonc2nc1Nc1ccccc1F: 90.4 % of DMSO
C#CCN(C)CC1=Cc2ccccc2Oc2ccccc21: 96.2 % of DMSO

Set 2 — Compound: O=C1c2ccccc2-c2n[nH]c3cccc1c23; read-out: enzyme activity; mode: inhibitor; tested at: 0.5 µM; baseline: control; endpoint: remaining activity
EPHA4 (Homo sapiens, UniProt P54764): 107%
WNK3 (Homo sapiens, UniProt Q9BYP7): 89.9%
RPS6KA5 (Homo sapiens, UniProt O75582): 79.5%
Cyclin-dependent kinase 4, with cyclin D3 (CDK4, Homo sapiens, UniProt P11802): 104%
MAPKAPK3 (Homo sapiens, UniProt Q16644): 99.3%
MAP4K4 (Homo sapiens, UniProt O95819): 64%
STK16 (Homo sapiens, UniProt O75716): 69.1%
HIPK2 (Homo sapiens, UniProt Q9H2X6): 97.7%
TSSK2 (Homo sapiens, UniProt Q96PF2): 98.9%
HIPK4 (Homo sapiens, UniProt Q8NE63): 107%
PHKG1 (Homo sapiens, UniProt Q16816): 65.8%
RPS6KA6 (Homo sapiens, UniProt Q9UK32): 88.2%
PDPK1 (Homo sapiens, UniProt O15530): 99%
Cyclin-dependent kinase 1, with cyclin B (CDK1, Homo sapiens, UniProt P06493): 63.4%
EPHB1 (Homo sapiens, UniProt P54762): 88.8%
EPHB4 (Homo sapiens, UniProt P54760): 90.9%
STK17A (Homo sapiens, UniProt Q9UEE5): 29.1%
DYRK3 (Homo sapiens, UniProt O43781): 102%
AXL (Homo sapiens, UniProt P30530): 85.8%
BLK (Homo sapiens, UniProt P51451): 102%

Set 3 — read-out: enzyme activity; mode: inhibitor; tested at: 10 µM; endpoint: inhibition
Target: Calcium/calmodulin-dependent protein kinase type II subunit alpha (CAMK2A, Homo sapiens, UniProt Q9UQM7)
UniProt Q9UQM7, sequence (whole entry, looked up): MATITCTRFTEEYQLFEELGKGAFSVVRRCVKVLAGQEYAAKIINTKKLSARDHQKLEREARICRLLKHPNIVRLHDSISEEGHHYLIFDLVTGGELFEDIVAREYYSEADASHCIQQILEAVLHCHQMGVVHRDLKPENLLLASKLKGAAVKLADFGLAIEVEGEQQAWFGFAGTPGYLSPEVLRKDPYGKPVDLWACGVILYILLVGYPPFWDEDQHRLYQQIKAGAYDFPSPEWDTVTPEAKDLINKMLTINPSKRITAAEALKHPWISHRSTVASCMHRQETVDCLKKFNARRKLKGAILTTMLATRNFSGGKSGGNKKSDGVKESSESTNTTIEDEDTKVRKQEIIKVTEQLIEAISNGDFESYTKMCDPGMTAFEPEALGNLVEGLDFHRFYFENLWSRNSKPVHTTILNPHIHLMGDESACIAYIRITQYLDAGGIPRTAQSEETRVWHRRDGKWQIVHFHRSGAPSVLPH
O=c1c(O[C@@H]2O[C@H](CO)[C@H](O)[C@H](O)[C@H]2O)c(-c2ccc(O)c(O)c2)oc2cc(O)cc(O)c12: -43%
C[N+](C)(CC(=O)Nc1ccccc1)CC(=O)Nc1ccccc1: 0%
COc1nccnc1NS(=O)(=O)c1ccc(N)cc1: 0%
COc1cc(C=O)ccc1O: -9%
OC[C@@]1(O)OC[C@@H](O)[C@@H](O)[C@@H]1O: 24%
COc1cc(-c2coc3cc4c(c(OC)c3c2=O)OCO4)cc(OC)c1OC: 11%
CC(C)=CCC[C@@H](C(=O)O)[C@H]1CC[C@@]2(C)C3=CC[C@H]4C(C)(C)[C@@H](O)CC[C@]4(C)C3=CC[C@]12C: 32%
CC(=O)N[C@@H](CCCN)C(=O)O: -15%

Set 4 — read-out: β-arrestin recruitment; mode: agonist; method: PRESTO-Tango; tested at: 10 µM; baseline: untreated; endpoint: fold over basal
SMILES: N=C(N)NC(=O)c1cnn(-c2cccc3ncccc23)c1C1CC1
Adhesion G-protein coupled receptor F3 (ADGRF3, Homo sapiens, UniProt Q8IZF5): 0.83
CNR2 (Homo sapiens, UniProt P34972): 1
GPRC5C (Homo sapiens, UniProt Q9NQ84): 1.75
GPR101 (Homo sapiens, UniProt Q96P66): 1.11
Adhesion G-protein coupled receptor D1 (ADGRD1, Homo sapiens, UniProt Q6QNK2): 1.44
GIPR (Homo sapiens, UniProt P48546): 0.89 fold

Other studies, line by line
O=C(NS(=O)(=O)c1ccc(NCC2CCOCC2)c([N+](=O)[O-])c1)c1ccc(N2CCN(Cc3ccc(C(F)(F)F)cc3-c3ccc(Cl)cc3)CC2)cc1Oc1cnc2[nH]ccc2c1
Ki (DRD3 (Homo sapiens, UniProt P35462); binding, radioligand binding): > 10 µM

CC(C)C[C@@H]1NC(=O)[C@@H](N(C)C(=O)[C@H](CC2CCC2)NC(=O)[C@@H]2C[C@@H](F)CN2C(=O)C2(C(F)(F)F)CC(F)(F)C2)CCCCNC(=O)C2(CC2)NC(=O)[C@H](Cc2cc(Cl)ccc2Cl)N(C)C1=O
G0-G1 phase cells (human CD34+ HSPC; EdU flow cytometry; 10000 nM, 24 h): 45.1% and 42%

CN(C)C(=O)/C(C#N)=C/c1ccc(-c2nc3cnc4[nH]ccc4c3n2C2CCCCC2)o1
viability (normal-adjacent epithelium patient-derived organoids sample H; CellTiter-Glo; 0.1 µM; baseline: DMSO): 81.9% and 129%
